Assay results collected from several papers.
Each line is one published result; not all experiments were run side by side. Several values in a cell are separate wells, animals, samples, runs or records. ± gives the spread as reported.

Structure (SMILES)	test	test system	setting	how to read	measurement	result
CCCCN1C(=O)c2cccc3c(NCCCCCCN4CCOCC4)ccc(c23)C1=O	–	water	pH 6.0	–	fluorescence quantum yield	0.32
C=CC(=O)Nc1cc(Nc2nccc(-c3c[nH]c4ccccc34)n2)c(OC)cc1N(C)CCN(C)C	storage stability	human dried blood spot	30 d, on ice, LLOQ level	–	recovery	51.1%
COCC1CN(C2CCN(c3cc(OC)c(Nc4ncc(Br)c(Nc5ccc6c(c5P(C)(C)=O)OCCO6)n4)cc3C)CC2)C1	–	EGFR-mutant NSCLC patients	oral, 90 mg once daily	–	grade ≥3 treatment-related AEs	0%
COC1C=COC2(C)Oc3c(C)c(O)c4c(c3C2=O)C2=NC3(CCN(CC(C)C)CC3)NC2=C(NC(=O)C(C)=CC=CC(C)C(O)C(C)C(O)C(C)C(OC(=O)Nc2cscn2)C1C)C4=O (stereo not drawn)	–	CD-1 mouse, female, plasma	oral, 10 mg/kg	–	oral bioavailability	53%
O[C@@H]1[C@@H](O)[C@H](n2cc(-c3ccc(-c4nncnn4)cc3)nn2)O[C@H](C[18F])[C@H]1O	–	BALB/c nude mouse, LS174T xenograft	intravenous, dose not given, 1 h, with: CC49-TCO pretargeting	–	tumour to control tumour ratio	4.2
NS(=O)(=O)c1c(F)c(F)c(Sc2nc3ccccc3s2)c(F)c1F	–	–	sulfonamide group	–	pKa	7.83
CCNCC#CCNc1ccnc2cc(Cl)ccc12	measured: compound as metabolite	monkey hepatocytes	10 µM DAQ, 30 min	baseline: parent at time zero	relative UV abundance	40.4%
CC(C)(C)C(=O)Nc1ccc2[nH]c(CN3CCC(N(CCCN4CCOCC4)CC4OC(n5cnc6c(N)ncnc65)C(O)C4O)CC3)nc2c1 (stereo not drawn)	–	male Sprague-Dawley rat, plasma	intravenous, 20 mg/kg, 2 h	–	concentration	56 ng/mL
CN([O-])C(=O)CN1CCNCCN(CC(=O)N(C)[O-])CC1.[89Zr+4]	–	mouse, liver	intravenous, 1 h	–	tracer uptake	0.24 %ID/g
COc1cnc2cccc(N3CCc4c(cc(Cn5ccnc5)cc4-c4cn(C)nc4C(F)(F)F)C3=O)c2c1	–	male CD-1 mouse, plasma	intraperitoneal, 10 mg/kg	–	Cmax	8680 ng/mL
Fc1cncc(-c2ccc3[nH]c4ncnc(N[C@H]5CC[C@H](N6CCOCC6)CC5)c4c3c2)c1	–	ICR mice, plasma	oral, 10 mg/kg	–	AUC(0-t)	387 ± 254 ng·h/mL
O=C(NS(=O)(=O)c1cccs1)c1cc2ccccc2n1Cc1ccc(Br)c2ccccc12	–	Sprague-Dawley rat, male, ankle joint tissue	oral, 2 mg/kg, 6 h	–	tissue concentration	7580 ng/g
COc1cc(-c2cc(=O)c3ccc(OCCCn4c(Cl)nc5ccccc54)cc3o2)cc(OC)c1OC	–	Sprague-Dawley rat male, plasma	intravenous, 10 mg/kg	–	CLz/F	750 ± 91.8 mL/min/kg
COc1cccc(OC)c1-c1cc(C(=O)NC2(C(=O)O)C3CC4CC(C3)CC2C4)nn1-c1ccc(C(=O)N(C)CCOCCN(C)C(=O)[C@H](CCCCNC(=O)[C@H](CC(C)C)NC(=O)C2OC2C(=O)O)NC(=O)CN2CCN(CC(=O)[O-])CCN(CC(=O)[O-])CCN(CC(=O)[O-])CC2)cc1C(C)C.[177Lu+3] (mixture of isomers)	–	mouse, HT-29 xenograft	72 h post injection, biodistribution	baseline: tumour over heart uptake	tumour-to-heart ratio	17.9
CC(C)(O)c1ncc([S@](N)(=O)=NC(=O)Nc2c3c(cc4c2CCC4)CCC3)s1	measured: any system organ class	healthy human volunteers	oral, 100 mg single dose, spray-dried dispersion suspension	–	subjects with TEAEs	50%
Cc1ccc(CN2C(=O)/C(=N\c3ccc(Cl)cc3Br)c3ccccc32)cc1	–	mouse, blood	150 mg/kg	–	granulocytes	30.8 ± 15.8%
C=CC(=O)Nc1cc(Nc2nccc(-c3cn(C4CC4)c4ccccc34)n2)c(OC)cc1N(C)CCNC	bench-top stability	rat plasma	40 ng/mL, 3 h, room temperature	baseline: nominal concentration	relative error	0.5%

Structure (SMILES)	test	test system	setting	how to read	measurement	result
COc1cc(N2CCN(C(=O)C3CCCN3)CC2)ccc1Nc1ncc(Cl)c(Nc2ccccc2P(C)(C)=O)n1 (stereo not drawn)	–	nude mice, NCI-H3122 xenograft	intraperitoneal, 10 mg/kg every other day, day 11	–	body weight	23.8 g and 26.5 g and 22.1 g and 25.3 g and 24.6 g
C[C@@H](C(=O)O)c1ccc(-c2ccccc2)c(F)c1	HPLC	solution	concentration not given, 4 h, room temperature	–	relative change of HPLC peak area	1.14%
C=CC(=O)Nc1cc(Nc2nccc(-c3cn(C)c4ccccc34)n2)c(OC)cc1N(C)CCNC	storage stability	human dried blood spots	24 h, -80 °C, LLOQ level	–	recovery	91%
CC(C)(F)CC(NC(c1ccc(-c2ccc(S(C)(=O)=O)cc2)cc1)C(F)(F)F)C(=O)NCC#CBr (stereo not drawn)	–	PBS	100 µM, 23 h, pH 8, 37 °C, with: cysteine 10 mM	–	cysteine adduct formation	17%
COc1cccc(OC)c1-c1cc(C(=O)NC2(C(=O)O)C3CC4CC(C3)CC2C4)nn1-c1ccc(C(=O)N(C)CCCN(C)CCCN(C)C(=O)[C@H](CCCCNC(=O)[C@H](CC(C)C)NC(=O)C2OC2C(=O)O)NC(=O)CN2CCN(CC(=O)[O-])CCN(CC(=O)[O-])CCN(CC(=O)[O-])CC2)cc1C(C)C.[177Lu+3] (mixture of isomers)	–	mouse, HT-29 xenograft	4 h post injection, biodistribution	baseline: tumour over heart uptake	tumour-to-heart ratio	7.36
O=C(Nc1cnccc1-c1ccc([18F])nc1)c1ccnc(NC(=O)C2CC2)c1	ex vivo gamma counting	FVB/NJ mice, both sexes, brain stem	intravenous, 120 min, with: tariquidar 15 mg/kg iv	–	mean SUV	0.075
O=C(CN1CCN(CC(=O)NCc2ncccc2O)CCN(CC(=O)NCc2ncccc2O)CCN(CC(=O)NCc2ncccc2O)CC1)NCc1ncccc1O.[177Lu+3]	–	Sprague-Dawley rat, kidney	intravenous (tail vein), dose not given, 2 h	–	tissue uptake	0.927 ± 0.285 % injected dose/g
CC[C@H](C)[C@@H]1NC(=O)[C@H](Cc2ccc(O)cc2)NC(=O)CCCSC[C@@H](C(=O)N(CC(=O)N[C@@H](CC(C)C)C(=O)NCC(N)=O)Cc2ccc(F)cc2)NC(=O)[C@H](CC(N)=O)NC(=O)[C@H](CCC(N)=O)NC1=O	–	human	intranasal and intravenous, 400 µg intranasal and 20 µg intravenous	–	serious adverse events	0%
N=C(N)NCCC[C@@H]1NC(=O)[C@H](CO)NC(=O)[C@@H](NC(=O)[C@H](CO)NC(=O)[C@H](CO)NC(=O)[C@H](Cc2c[nH]c3ccccc23)NC(=O)CNC(=O)[C@H](CO)NC(=O)[C@@H](N)Cc2c[nH]c3ccccc23)CSSC[C@@H](C(=O)NCC(=O)O)NC(=O)[C@H](CO)NC1=O	–	patients, plasma	intravenous, 5 mg/kg, thrice weekly, median	–	volume of distribution (Vz)	580 L
Cc1nn(-c2nc3c(F)cc(F)cc3s2)c(O)c1C(c1ccc(C(F)(F)F)cc1)c1c(C)nn(-c2nc3c(F)cc(F)cc3s2)c1O	–	ICR mouse, plasma	intraperitoneal, 10 mg/kg	–	MRT(0-inf) observed	11.9 h and 7.44 h and 9.66 h
CN1CCCNC(=O)c2cccc(c2)C(=O)NCCCN(C)CCCNc2cccc3c2C(=O)c2cccc(c2C3=O)NCCC1	–	mice, serum	dose not given	–	ALT	29.3 IU/L
Cc1cc(NC(=O)[C@H](O)c2cc(F)cc(F)c2)ccc1-c1cnc(N)c(C(=O)NC(C)C)c1	–	athymic nude Foxn1nu mouse, female, plasma	oral, 10 mg/kg	–	dose-normalised Cmax	171 ng·kg/mL/mg
C=Cc1c(C)c2cc3nc(c(CC(=O)O)c4[nH]c(cc5nc(cc1[nH]2)C(C)=C5CC)c(C)c4C(=O)O)[C@@H](CCC(=O)OCCOCCOCCOC)[C@@H]3C	LC-MS	methanol-water 9:1	5 min, pH 2.0	–	compound loss	17%
COC(=O)C(C)n1nc(Cn2cc3cc(OCC[18F])c(Cl)cc3n2)c2ccccc2c1=O (racemic)	–	rat, brain	90 min	–	radiometabolite	36%
O=C(O)CCCOc1ccc([18F])cc1-c1cc(-c2ccccc2C(F)(F)F)n(-c2ccccc2)n1	OLINDA/EXM from mouse data	human adults, pancreas	–	–	absorbed dose	10.8 µGy/MBq
CC(=O)N[C@@H](Cc1ccccc1)C(=O)N[C@@H](CC(C)C)C(=O)NCC(=O)N[C@H](C(=O)N[C@@H](CC(C)C)C(=O)N[C@@H](C)C(=O)N[C@@H](CC(C)C)C(=O)N[C@@H](CC(C)C)C(=O)NCC(=O)N[C@@H](Cc1ccc(O)cc1)C(=O)N[C@@H](CC(C)C)C(=O)N[C@@H](C)C(=O)N[C@H](C(=O)N[C@@H](CCCNC(=N)N)C(=O)N1CCC[C@H]1C(=O)N[C@@H](Cc1ccccc1)C(=O)N[C@@H](CC(C)C)C(=O)N1CCC[C@H]1C(=O)N[C@@H](CCCCN)C(=O)N[C@@H](CCCCN)C(=O)N[C@@H](CCCCN)C(=O)N[C@@H](CCC(N)=O)C(=O)N[C@@H](CCC(N)=O)C(=O)N[C@@H](CCCCN)C(N)=O)C(C)C)C(C)C	LC-MS	DOPC vesicles with trypsin	10 µM, 12 h, pH 7.2	–	cleaved to intact ratio	0.08 ± 0.08
